Published values gathered from unrelated publications.
Each line is one published result; not all experiments were run side by side. Several values in a cell are separate wells, animals, samples, runs or records. ± gives the spread as reported.

SMILES | test | system | conditions | Tmax
O=C(O)C1=CO[C@@H](O[C@@H]2O[C@H](CO)[C@@H](O)[C@H](O)[C@H]2O)[C@@H]2C(CO)=CC[C@H]12 |  | rat, plasma | oral, 500 mg/kg Eu extract, dosed as Eu extract | 3 ± 1.73 h
C1=C/COCc2cc(ccc2OCCN2CCCC2)Nc2nccc(n2)-c2cccc(c2)COC/1 | LC-MS/MS | Sprague-Dawley rat, male, plasma | oral, 36 mg/kg, added: voriconazole 30 mg/kg oral | 7 ± 2.76 h
C=CC(=O)N1CCC(Oc2cc3c(Nc4ccc(Cl)c(Cl)c4F)ncnc3cc2OC)CC1 |  | Sprague-Dawley rat, male, plasma | oral, 2 mg/kg, 1 weeks pretreatment, added: Schisandrin A 20 mg/kg daily pretreatment | 0.28 ± 0.17 h
CCCCOCCOc1ccc(-c2ccc3c(c2)/C=C(/C(=O)Nc2ccc([S@@+]([O-])Cc4cncn4CCC)cc2)CCCN3CC(C)C)cc1 |  | moderate hepatic impairment patients, plasma | oral, 150 mg, day 1, single dose, geometric mean | 5.4 h
O=c1oc2c(O)c(O)cc3c(=O)oc4c(O)c(O)cc1c4c23 |  | rat, plasma | oral, 500 mg/kg extract, extract | 2.5 ± 0.5 h
CCCCCCCCc1ccc(CCC(N)(CO)CO)cc1 | LC-MS/MS | Sprague Dawley rat, male, plasma | oral, 1 mg/kg amiselimod, single | 8 h
N=C(N)NCCNC(=O)C1(Nc2ccccc2)CCN(Cc2ccccc2)CC1 |  | Sprague-Dawley rats, both sexes, plasma | oral, 50 mg/kg, mean of both sexes | 0.2 h
N#CC(Cc1ccc(O)cc1)c1ccc(O)cc1 (stereo not drawn) | measured: total aglycone | rat, Long-Evans, female, serum | subcutaneous, 2 mg/kg single dose | 0.5 h
CCc1c(-c2ccccc2)c(-c2ccccc2)nn1-c1ccccc1-c1cccc(OCC(=O)O)c1 |  | Sprague-Dawley rat | oral | 0.5 h and 2 h
CC(C)c1nc(N(C)S(C)(=O)=O)nc(-c2ccc(F)cc2)c1/C=C/[C@@H](O)C[C@@H](O)CC(=O)O |  | rat, Wistar albino, plasma | oral, 20 mg/kg | 3.4 h
CNC(=O)c1cccc(-c2ccc([C@@H](O)[C@H]3O[C@H](CO)[C@@H](O)[C@H](O)[C@@H]3O)c(C)c2)c1 |  | male Sprague-Dawley rat, plasma | intravenous, 3 mg/kg, group mean | 0.083 h
O=C(O)c1cc(O)c(O)c(O)c1 |  | rat, plasma | oral, 1000 mg/kg extract, possible metabolite or extract component | 1.19 ± 0.23 h
NS(=O)(=O)c1ccc(-n2nc(C(F)(F)F)cc2-c2ccc(CO)cc2)cc1 |  | Sprague-Dawley rat, whole blood | oral, 20 mg/kg of celecoxib | 13.3 h
CCc1cc(C(=O)NC)c2nccc(N3CCc4c(cc(Cn5ccnc5)cc4-c4cn(C)nc4C(F)(F)F)C3=O)c2c1 |  | Sprague Dawley rat, male, plasma | oral, 50 mg/kg once daily, 7 days | 1 h
O=C1c2ccncc2C(=O)c2c1[nH]c1ccccc21 |  | Sprague-Dawley rat, male, plasma | intravenous, 1 mg/kg | 0.08 h
Cc1cccc(CNC(=O)c2cn(CCNC(=O)c3ccccc3S)c3cc4c(cc3c2=O)OC(F)(F)O4)n1 |  | Sprague-Dawley rat, male, plasma | intravenous, 20 mg/kg of parent drug | 0.083 h
CN1CCC[C@H](CN2c3ccccc3Sc3ccccc32)C1.Cl |  | Wistar rat female, eye | oral, 16 mg/kg | 6 h
Cc1cccc(CNC(=O)c2cn(CCNC(=O)c3ccccc3Sc3c([N+](=O)[O-])ncn3C)c3cc4c(cc3c2=O)OC(F)(F)O4)n1 |  | Sprague-Dawley rat, male, whole blood | intramuscular, 10 mg/kg of parent drug | 0.083 h
O=C(O)CCSC[C@H]1O[C@@H]2O[C@H]3[C@H](O)[C@@H](O)[C@@H](O[C@H]4[C@H](O)[C@@H](O)[C@@H](O[C@H]5[C@H](O)[C@@H](O)[C@@H](O[C@H]6[C@H](O)[C@@H](O)[C@@H](O[C@H]7[C@H](O)[C@@H](O)[C@@H](O[C@H]8[C@H](O)[C@@H](O)[C@@H](O[C@H]9[C@H](O)[C@@H](O)[C@@H](O[C@H]1[C@H](O)[C@H]2O)O[C@@H]9CSCCC(=O)O)O[C@@H]8CSCCC(=O)O)O[C@@H]7CSCCC(=O)O)O[C@@H]6CSCCC(=O)O)O[C@@H]5CSCCC(=O)O)O[C@@H]4CSCCC(=O)O)O[C@@H]3CSCCC(=O)O |  | Sprague Dawley rat, plasma | intravenous, 5 mg/kg, added: rocuronium bromide IV | 0.0167 h
CCCCCCCOc1ccc(CCC(N)(CO)CO)cc1C(F)(F)F.Cl |  | male Sprague-Dawley rat, heart | oral, 1 mg/kg, single dose | 8 h
Cc1cc(-c2ccc3cc[nH]c(=O)c3c2)ccc1O[C@H]1O[C@H](CO)[C@@H](O)[C@H](O)[C@@H]1O |  | Sprague-Dawley rat, male, plasma | oral, 10 mg/kg | 0.5 h
O=C(Nc1ccc(OC(F)(F)Cl)cc1)c1cnc(N2CC[C@@H](O)C2)c(-c2ccn[nH]2)c1 |  | Sprague-Dawley rat, male, plasma | oral, 8 mg/kg | 2.63 ± 1.11 h
CNC(=O)c1cccc(-c2ccc(O[C@H]3O[C@H](CO)[C@@H](O)[C@H](O)[C@@H]3O)c(C)c2)c1 |  | male Sprague-Dawley rat, plasma | oral, 10 mg/kg, group mean | 1.42 h
COC(=O)C1=CO[C@@H](O[C@@H]2O[C@H](CO)[C@@H](O)[C@H](O)[C@H]2O)[C@@H]2C(CO)=CC[C@H]12 |  | rat, plasma | oral, 500 mg/kg Eu + 217 mg/kg Pc extract, dosed as combined Eu and Pc extracts | 0.63 ± 0.53 h
C=CC(=O)N1CCC[C@@H](n2nc(-c3ccc(Oc4ccccc4)cc3)c3c(N)ncnc32)C1 |  | male Wistar rat, spleen | oral, 50 mg/kg | 1 h
CSc1ccccc1C(=O)NCCn1cc(C(=O)NCc2cccc(C)n2)c(=O)c2cc3c(cc21)OC(F)(F)O3 |  | Sprague-Dawley rat, male, plasma | intravenous, 5 mg/kg of parent compound | 0.083 h
OCC1=C[C@@H](O)[C@@H]2C=CO[C@@H](O[C@@H]3O[C@H](CO)[C@@H](O)[C@H](O)[C@H]3O)[C@H]12 |  | Sprague-Dawley rat, internal jugular vein plasma | oral, 500 mg/kg Eu extract, dosed as Eu extract | 0.42 ± 0.14 h
